Experimental data pooled from the literature.
Numbered parts are unrelated; each lists some results of a single study. Changes are numbered by the printed parent chain.

Set 1 — observed: peptide-MHC binding; molecule type: peptide; tested at: concentration not given
Target: HLA class I histocompatibility antigen, A alpha chain, allele A*25:01 (Homo sapiens, UniProt P04439)
| Molecule | binding |
| --- | --- |
| RYEFTAPFI | inactive |
| MVRVLTVIKEY | inactive |
| EVIRATYPS | inactive |

Set 2 — method: RNA Bind-n-Seq; molecule type: RNA; medium: in vitro; tested at: 200 nM; notes: whole 134-nt RNA, ends assumed; with: 150 mM LiCl; reference: input library; reading: higher = stronger binding; each molecule: 7-deaza-guanosine replaces G
Target: Fragile X messenger ribonucleoprotein 1, C-terminal low-complexity region (Fmr1, Mus musculus, UniProt P35922)
| Strand | log2 enrichment |
| --- | --- |
| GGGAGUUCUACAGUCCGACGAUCUGGGAGGUGGAUUUUGUUUAUUUUUUUAGCUCAUUUCCAGGGGUGGGAAUUUUUAUUUAAUAUGUGUCAUGAAUAAAGUUGUUUUUGAAAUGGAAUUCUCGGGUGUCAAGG | -0.17 |
| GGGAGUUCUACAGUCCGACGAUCGUCCUGUGCUACACAUCGUAUGUACCGAAUCGGGCCCCCCGGCCCCCCGGCCCCCCGGAAAGUAUUAUGUUACGCCGUUCGGAUCUGCACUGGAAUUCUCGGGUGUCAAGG | 1.18 |
| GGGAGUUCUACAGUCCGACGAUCACCAUGCAGGUGGGCAUCUUUGGGAAGUGGGGCAAGGGGGGGAUAGGGAGGGGGGUAACACUUUGGGAACUGGUGGUCCCAGGUCGUUUCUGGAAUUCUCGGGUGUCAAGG | 1.56 |
| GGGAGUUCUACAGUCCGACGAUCUAACUUUAGAGGAGGAUCUGAUGGAUAUGGCAGUGGACGUGGAUUUGGGGAUGGCUAUAAUGGGUAUGGAGGGGGACCUGGAGGUGGCAAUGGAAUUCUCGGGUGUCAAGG | 0.718 |
| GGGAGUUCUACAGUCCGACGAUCUCCUGUGCUACACAUCGUAUGUACCGAAUCAAACCCCCAAAUUUUUUUAAAUUUUUAAAAAAGUAUUAUGUUACGCCGUUCGGAUCUGCAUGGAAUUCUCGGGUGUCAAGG | 1.21 |
| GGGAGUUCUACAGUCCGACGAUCGCAGGAAUUAAAAACAAAUGGAAAUGCUUCGGAUAGUGGCAGGGGUGGGGGUUGCUAAGGAAAGGGUGGGAUGGGAGUGGGUAAAGAGUUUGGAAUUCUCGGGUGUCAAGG | 1.72 |
| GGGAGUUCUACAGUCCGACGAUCGUUAAUUCCACCAUCCCCAUCACAGCAGAAGUUUUCAAGAAGCAUGGAGUGUACAACCCCAACAAAAUCUUCGGCGUGACGACCCUGGACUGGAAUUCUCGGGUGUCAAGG | 2.05 |
| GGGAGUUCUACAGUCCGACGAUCCCUGUGCUACACAUCGUAUGUACCGAAUCGGGGAAAGGGGAAAAAAAGGGGUUUUUGGGGAAAGUAUUAUGUUACGCCGUUCGGAUCUGCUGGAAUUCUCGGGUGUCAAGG | -0.174 |

Set 3 — method: RNA Bind-n-Seq; molecule type: RNA; medium: in vitro; tested at: 365 nM; reference: no-protein control; reading: higher = stronger binding
Target: RNA binding protein fox-1 homolog 2, RRM domain, GST-SBP tag (RBFOX2, Homo sapiens, UniProt O43251-10, residues 100-194)
Notes: natural RNA segment, single round, ends assumed
Construct (chain): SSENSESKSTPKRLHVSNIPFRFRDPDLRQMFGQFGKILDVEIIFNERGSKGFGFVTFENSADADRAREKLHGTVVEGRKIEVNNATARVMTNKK
| Strand | RBNS enrichment (R) |
| --- | --- |
| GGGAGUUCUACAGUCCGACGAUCUCACCUUCACCAUGGGCUUCCUGGGUGCGCGGGCCUGAGCGCAGGUUGUUUUGUACAUAUUGGAAUAUGUGUUAACUUAUGCCCCGCAUCCCAACUCACACGGAAGCACGUGGAAUUCUCGGGUGCCAA | 0.73 |
| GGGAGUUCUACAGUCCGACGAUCUUCUGAAGAAUGAGUUUGUUUGCAAUUUGUAAGUGAAACUGAAUUAUGGGUACAUUCAAGACAAGAGUGUUCCAUUGACUGCAGCUAUCCAAGGACCGCCUGUUCAUAAGUGGAAUUCUCGGGUGCCAA | 0.787 |
| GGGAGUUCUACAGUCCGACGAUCGGGGGAAGGGGUGACUGAACUGGGAGUCCAGGGAGGGAGCUGAGGAGCCCUUACCCUCCCACCACUCCCCUCCCAAGACCCAGCCGCCGCCGUUGAGGGCUGAGUCCUUGUGGAAUUCUCGGGUGCCAA | 0.526 |
| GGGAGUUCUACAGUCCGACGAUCUAGUUUAGUAAACUGGCCCAUUUGGGCUGAAGAACUUGUGUGGAAAGAGUCCAAACAACUCAUCAUUUUCUUCUCUGCAUAUCUCACCACAAUUGUAGGAUUUUUUUUUCUGGAAUUCUCGGGUGCCAA | 0.549 |
| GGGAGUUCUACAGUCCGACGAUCAGCAGAGUGUGCAUGGCAAGGAAAUGAGUCACCUCCUUGGGGGAUGGUGCUGUUUUUAUGAAAACCUCUGAUCCUUGGUGUCCUUUAAUUGAUCUGUUCAACAAAUAUUUUGGAAUUCUCGGGUGCCAA | 13.3 |
| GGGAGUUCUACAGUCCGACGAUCCAGCCAUCUCUGCAAAUGCUCCUGAACUGCUGACAGUUACGGCAUCAAACGGAAGACGGCAGGCCCUGUCCUUCCACUCAGGUGCUGCUUGCAGUGCUCCUCAACAGAGGUGGAAUUCUCGGGUGCCAA | 0.289 |
| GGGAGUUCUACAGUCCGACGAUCUGUACUCUGAAUUUUCAGGAACCGUCAAAGGAGCAGCAGCAAAUUCACAUAUUUUCGACUUGAGAAAUGCUUGUGGUAUGUGUUUUCCAAACUGCCCCCUAUAUGUAAAGUGGAAUUCUCGGGUGCCAA | 0.821 |
| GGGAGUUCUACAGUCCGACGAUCUGGAGUAUACACUCUGACUUCUACCUAUGCUUCCUGGAUCCACCACCAUGUGGCAGAGCUCCAGCCUCGAGUUGUCCCCCAGACUCAGGAGUCCCAGCCGGAUGGCCACCUGGAAUUCUCGGGUGCCAA | 0.292 |

Set 4 — target: CCND3, cyclin fold, Cln2 fusion (human); method: yeast growth competition, sequencing; medium: yeast; notes: weak parent motif; reference: not given; reading: higher = stronger binding; parent: viral docking peptide; KGVKRKLFAEDSS
| Substitution | normalised enrichment score |
| --- | --- |
| KGVKRPLFAEDSS [K6P] | 0.194 |
| KGVKRKLFAEKSS [D11K] | -0.0329 |
| KGHKRKLFAEDSS [V3H] | 0.342 |
